Assay results collected from several papers.
Parts stem from different laboratories: compare values within a part only. Changes are numbered by the printed parent chain.

Set 1
Target: RING finger protein unkempt homolog, zinc fingers 1-6, GST-SBP tag (UNK, Homo sapiens, UniProt Q9C0B0, residues 30-357)
Sequence of UniProt Q9C0B0 (30-357, looked up): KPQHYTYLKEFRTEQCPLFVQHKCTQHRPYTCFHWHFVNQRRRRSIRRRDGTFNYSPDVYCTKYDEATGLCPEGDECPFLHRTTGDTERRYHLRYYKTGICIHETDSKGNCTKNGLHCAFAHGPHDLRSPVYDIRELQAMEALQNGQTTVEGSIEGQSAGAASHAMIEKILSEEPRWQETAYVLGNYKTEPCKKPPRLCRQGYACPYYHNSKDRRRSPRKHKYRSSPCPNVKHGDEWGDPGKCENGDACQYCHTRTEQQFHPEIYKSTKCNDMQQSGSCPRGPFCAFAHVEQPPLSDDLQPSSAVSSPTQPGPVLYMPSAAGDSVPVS
Technique: RNA Bind-n-Seq
Molecule type: RNA
Medium: in vitro
Concentration: not given
Notes: RNA with constant flanks, human-mouse chimeric sites, ends assumed
Baseline: input RNA pool
Reading: higher = stronger binding
Measurement: bound/input enrichment
All sequences stand within: GGGAGUUCUACAGUCCGACGAUC … CAACAGAGGAUUGAGCAUCA
UUAAUCCCCUUUACUGCUCCCCCACUUCUCAUGGUAAUAACAAAGUCUUAUAUCCCCGUCCUAGCUUUUACUCAGAUGGCUUAUGGAGCCGGUUUCCUAGCUUUCUUGGGAGGGAUCAGA: 0.671 ratio
UUCAAAGAAAAGGGCAGCUGUGUCAUUACUUGGGAGACUCUGGGGGAGGGAAAUUCUAACUAGUUUGUUAAUUUUCCCCCAAAUGAAGCCAAAGUGUGUGUUGAAGAACUGAGAAAAAAU: 1.05 ratio
CUAAUCCCCUUUACUGCUCCCCCACUUCUCAUGGUAAUAACAAAGUCUUAUAUCCCCGUCCUAGCUUUCACUCAGAUGGCUUAUGGAGCCAGUUUCCUAGCUUUCUUGGGAGGGAUCAGA: 0.46 ratio
UAAGUUAUUUUGUACAGUAAGUUAUUUUCUUAACAUUUUUAUAUUGCCAUGUUUAUUUUGUUUGGGUAAUUUGGUUCAUUAAGUACAUAGCUAAGGUAAUGAACAUCUUUUUCAGUAAUU: 2.32 ratio
CAACCUCAGAGCCCAGACUUCCUGGAUAUUACCAACCCUAAAGCGGUAUUAGAAAAUGCACUUAGGAACUUCGCCUGUCUGACGACUGGAGAUGUGAUUGCUAUCAACUACAAUGAGAAG: 0.68 ratio
UUGCUACUGACUCCCUGGGUCAAGUUCCUGUGGGAGUCAUACAGGCAGUGUUUGGACCUUCUUCGAAACAAUUCUAGAGUAGAGCGCCUGUACCAUGAUAUCGCCCAACAAGCUUUCAAA: 0.109 ratio
GCUCCUCUUCCGCACUCAGCCUGGGGACACUGGGCUGGGACCAGAAUCCAGCUUUCUUUUAAAACUCUCAGUGUAACUGUAUCCCGUUUUUUUCUUUUUUUUUUAAAUAGUGUAUUUUUU: 16.3 ratio
AACUUCGUGCAUCGGUUUCCCUUUGUAGCUGUUUCAAUUGGCUUCCUUGUAAAUAAAGAGAUGGAGUUUGGAGUUGUGUACAGCUGUGUGGAAGAUAAGAUGUACACCGGCAGGAAAGGG: 0.45 ratio

Set 2
Target: CCND2, cyclin fold, Cln2 fusion (human)
Technique: yeast growth competition, sequencing
Medium: yeast
Notes: weak parent motif
Baseline: not given
Reading: higher = stronger binding
Measurement: normalised enrichment score
Starting sequence: CDKN1B docking peptide (human); PSACRNLFGPVDH
PSACRNLFGPVDT [H13T]: 0.122
PSACRNLFGPKDH [V11K]: 0.049
PSACRMLFGPVDH [N6M]: 0.214
PSACDNLFGPVDH [R5D]: 0.172
PSACRQLFGPVDH [N6Q]: 0.363
PSRCRNLFGPVDH [A3R]: -0.014
PSACRNLFGPTDH [V11T]: 0.192
PEACRNLFGPVDH [S2E]: 0.174
PSACRDLFGPVDH [N6D]: 0.0837
PSACRNQFGPVDH [L7Q]: 0.0495
PSATRNLFGPVDH [C4T]: 0.0349
PSACVNLFGPVDH [R5V]: -0.0464
PGACRNLFGPVDH [S2G]: 0.204
PSACRNLFGRVDH [P10R]: 0.273
PSACRNLGGPVDH [F8G]: -0.298
SSACRNLFGPVDH [P1S]: -0.0311
PSACRNLLGPVDH [F8L]: 0.1
PSACRNCFGPVDH [L7C]: -0.346
LSACRNLFGPVDH [P1L]: 0.302
PSACRNLFGPPDH [V11P]: 0.178
PSACRRLFGPVDH [N6R]: 0.206
PSACRNLVGPVDH [F8V]: -0.412
PSACRNLFSPVDH [G9S]: 0.103
PSACRNWFGPVDH [L7W]: -0.0168
PSACRNIFGPVDH [L7I]: 0.498

Set 3
Target: Histone acetyltransferase KAT6A, winged helix 1, GST fusion (KAT6A, Homo sapiens, UniProt Q92794, residues 1-85)
Technique: protein binding microarray
Molecule type: double-stranded DNA, one strand shown
Medium: in vitro
Concentration: not given
Notes: 8-mer, flanks averaged, mean of 2 arrays, mostly near background
Baseline: not given
Reading: higher = stronger binding
Measurement: E-score
Construct (chain): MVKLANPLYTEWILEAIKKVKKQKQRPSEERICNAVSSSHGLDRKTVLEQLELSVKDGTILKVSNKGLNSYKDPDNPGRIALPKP
GCCCGATA: 0.0689
CCCAGCAA: -0.0577
CCCCAAGC: 0.0101
TGTACACA: -0.161
AACCTAGA: -0.115
ACAACAAC: -0.171
GAGCATCC: -0.0909
AGCGTCCT: 0.0391
CGGCGCGA: 0.415
CAATGTGG: 0.0165
CAAAAGCG: 0.163
ACGCGTTG: 0.339
AACCAGCC: -0.0822
AGTTCCGC: 0.233
ATCTTTCA: -0.251
AAGAGTAT: -0.179
GCTATAAA: 0.0355
ATATCTTG: -0.224
GATGATGA: -0.15
GAATTCCC: -0.0618
GTAGAAAA: -0.213

Set 4
Target: ABI1, truncated, D143A, DHFR fusion (Arabidopsis thaliana)
Technique: DHFR PCA, deep sequencing
Medium: yeast
Notes: methotrexate growth selection, single substitutions
Together with: (+)-ABA 0.0091 µM
Baseline: wild-type fitted maximum
Reading: higher = stronger binding
Measurement: relative binding score
Starting sequence: PYL1, truncated, DHFR fusion (Arabidopsis thaliana); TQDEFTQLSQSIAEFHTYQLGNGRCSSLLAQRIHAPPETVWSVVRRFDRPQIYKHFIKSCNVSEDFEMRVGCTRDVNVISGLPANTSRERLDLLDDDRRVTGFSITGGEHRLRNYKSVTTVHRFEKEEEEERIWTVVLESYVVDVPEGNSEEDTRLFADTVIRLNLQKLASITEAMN
E128D: 47%
T86C: 28.6%
T17Y: -3.32%
T119M: 0.47%
T160S: 5.39%
R49V: 3.25%
Y141M: -3.79%
I12A: 1.96%
A35R: -2.3%
W134F: 23.6%
D95A: -6.58%
T173Q: -1.92%

Some of these lines once more (set 4):
T173Q: -1.92%
T17Y: -3.32%
R49V: 3.25%
I12A: 1.96%
Y141M: -3.79%
E128D: 47%
W134F: 23.6%
D95A: -6.58%
T160S: 5.39%
A35R: -2.3%
T86C: 28.6%
